Assay results gathered from unrelated publications.
Compare with care: the assays were run in different laboratories. ± marks the error that the study gave.

| Structure (SMILES) | assay | system | setting | how to read | measurement | result |
| --- | --- | --- | --- | --- | --- | --- |
| COC(=O)c1ccccc1-c1c2ccc(=N)cc-2oc2c1ccc1cccc(O)c12.Cl |  | 12.5 mM aqueous NaOH | pH 12.1, 10% DMSO |  | fluorescence quantum yield | 0.11% |
| Cc1ccc2c(c1)sc(-c1ccc(N(C)C)cc1)[n+]2C |  | PBS | free dye |  | fluorescence quantum yield | 0.001 |
| COC(=O)c1ccccc1C1=c2cc3c4c(c2Oc2c1ccc1cccc(O)c21)CCC[N+]=4CCC3.[Cl-] |  | 12.5 mM aqueous NaOH | pH 12.1, 10% DMSO |  | fluorescence quantum yield | 0.3% |
| CC1(C)C(/C=C/C=C/C=C/C=C2\N(CCCCS(=O)(=O)O)c3ccc4ccccc4c3C2(C)C)=[N+](CCCCS(=O)(=O)[O-])c2ccc3ccccc3c21 |  | DMSO |  |  | fluorescence quantum yield | 8.3 ± 0.5% |
| COc1ccc2c(c1)sc(-c1ccc(N(C)C)cc1)[n+]2C |  | PBS | free dye |  | fluorescence quantum yield | 0.007 |
| C=Cc1c(C)c2cc3nc(c4c5[nH]c(cc6nc(cc1[nH]2)C(C)=C6CC)c(C)c5C(=O)C4)[C@@H](CCC(=O)O)[C@@H]3C | fluorescence spectroscopy | methanol | 1 µM |  | fluorescence emission maximum | 672 nm |
| Nc1ccccc1/C=C/C(=O)c1ccccc1 |  | toluene |  | relative to: coumarin 153 in ethanol | fluorescence quantum yield | 5.5 ± 1% |
| CC1(C)C(/C=C/C=C/C=C/C=C2\N(CCCCS(=O)(=O)O)c3ccc4ccccc4c3C2(C)C)=[N+](CCCCS(=O)(=O)[O-])c2ccc3ccccc3c21 |  | solution | 66 µM, below -20 °C, dark, 800 nm |  | fluorescence stability duration | > 2 months |

For quick reference, copied from above:
| Structure (SMILES) | assay | system | setting | how to read | measurement | result |
| --- | --- | --- | --- | --- | --- | --- |
| COc1ccc2c(c1)sc(-c1ccc(N(C)C)cc1)[n+]2C |  | PBS | free dye |  | fluorescence quantum yield | 0.007 |
